Published values gathered from unrelated publications.
A part holds a random share of what one study measured.
UniProt P51817, sequence (whole entry, looked up): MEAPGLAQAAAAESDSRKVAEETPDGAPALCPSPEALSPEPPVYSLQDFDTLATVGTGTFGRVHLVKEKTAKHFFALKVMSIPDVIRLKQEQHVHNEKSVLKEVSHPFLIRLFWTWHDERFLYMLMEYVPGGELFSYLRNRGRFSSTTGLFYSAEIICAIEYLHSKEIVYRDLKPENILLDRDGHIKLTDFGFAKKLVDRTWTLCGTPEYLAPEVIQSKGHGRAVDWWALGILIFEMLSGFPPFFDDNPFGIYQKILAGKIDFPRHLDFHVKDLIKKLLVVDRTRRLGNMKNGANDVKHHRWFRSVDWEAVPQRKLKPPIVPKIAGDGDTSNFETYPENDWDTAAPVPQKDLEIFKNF
UniProt Q15418, sequence (whole entry, looked up): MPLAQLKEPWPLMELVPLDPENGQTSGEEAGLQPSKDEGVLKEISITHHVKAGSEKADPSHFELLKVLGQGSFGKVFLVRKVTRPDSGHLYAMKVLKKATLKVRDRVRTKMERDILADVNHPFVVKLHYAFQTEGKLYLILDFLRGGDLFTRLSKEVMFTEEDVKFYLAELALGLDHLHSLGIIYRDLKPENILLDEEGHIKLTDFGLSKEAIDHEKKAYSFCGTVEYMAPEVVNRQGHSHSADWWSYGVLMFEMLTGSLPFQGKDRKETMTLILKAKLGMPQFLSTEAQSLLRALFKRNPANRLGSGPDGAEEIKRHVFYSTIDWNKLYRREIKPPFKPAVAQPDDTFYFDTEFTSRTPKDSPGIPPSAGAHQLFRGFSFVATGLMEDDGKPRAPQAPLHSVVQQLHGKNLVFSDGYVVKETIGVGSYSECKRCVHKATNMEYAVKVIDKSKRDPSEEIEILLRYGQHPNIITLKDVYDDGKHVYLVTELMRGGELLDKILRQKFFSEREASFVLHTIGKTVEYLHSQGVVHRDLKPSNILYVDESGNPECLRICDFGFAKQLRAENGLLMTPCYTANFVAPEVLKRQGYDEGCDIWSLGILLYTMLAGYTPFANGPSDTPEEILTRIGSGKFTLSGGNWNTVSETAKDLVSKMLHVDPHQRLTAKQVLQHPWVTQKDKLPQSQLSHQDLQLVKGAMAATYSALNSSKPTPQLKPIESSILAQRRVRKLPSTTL
UniProt P07333, sequence (whole entry, looked up): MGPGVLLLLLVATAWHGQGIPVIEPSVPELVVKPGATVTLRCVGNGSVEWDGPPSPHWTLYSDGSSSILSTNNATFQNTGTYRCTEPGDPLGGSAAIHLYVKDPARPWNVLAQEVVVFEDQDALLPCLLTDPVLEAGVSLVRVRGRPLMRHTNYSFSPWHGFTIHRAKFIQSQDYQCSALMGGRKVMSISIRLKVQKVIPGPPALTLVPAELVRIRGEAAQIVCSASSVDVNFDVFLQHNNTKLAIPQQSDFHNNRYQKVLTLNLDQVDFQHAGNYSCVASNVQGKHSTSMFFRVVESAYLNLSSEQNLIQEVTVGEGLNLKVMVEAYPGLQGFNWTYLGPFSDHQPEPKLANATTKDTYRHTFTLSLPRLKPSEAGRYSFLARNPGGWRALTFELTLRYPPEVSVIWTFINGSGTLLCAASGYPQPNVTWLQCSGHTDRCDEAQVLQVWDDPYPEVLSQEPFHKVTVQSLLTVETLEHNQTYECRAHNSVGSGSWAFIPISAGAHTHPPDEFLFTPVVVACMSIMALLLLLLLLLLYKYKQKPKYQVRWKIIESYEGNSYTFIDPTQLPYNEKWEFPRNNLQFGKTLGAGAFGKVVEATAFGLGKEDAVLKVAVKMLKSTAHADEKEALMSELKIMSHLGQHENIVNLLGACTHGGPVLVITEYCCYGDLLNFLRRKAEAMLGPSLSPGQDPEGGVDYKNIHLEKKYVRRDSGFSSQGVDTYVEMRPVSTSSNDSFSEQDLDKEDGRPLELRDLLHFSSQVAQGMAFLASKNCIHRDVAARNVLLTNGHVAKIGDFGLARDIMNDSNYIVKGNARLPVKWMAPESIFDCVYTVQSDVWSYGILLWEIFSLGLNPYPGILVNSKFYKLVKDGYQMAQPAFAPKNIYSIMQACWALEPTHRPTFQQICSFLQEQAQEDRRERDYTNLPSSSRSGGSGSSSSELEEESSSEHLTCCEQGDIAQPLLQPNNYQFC
UniProt Q8NEV4, sequence (whole entry, looked up): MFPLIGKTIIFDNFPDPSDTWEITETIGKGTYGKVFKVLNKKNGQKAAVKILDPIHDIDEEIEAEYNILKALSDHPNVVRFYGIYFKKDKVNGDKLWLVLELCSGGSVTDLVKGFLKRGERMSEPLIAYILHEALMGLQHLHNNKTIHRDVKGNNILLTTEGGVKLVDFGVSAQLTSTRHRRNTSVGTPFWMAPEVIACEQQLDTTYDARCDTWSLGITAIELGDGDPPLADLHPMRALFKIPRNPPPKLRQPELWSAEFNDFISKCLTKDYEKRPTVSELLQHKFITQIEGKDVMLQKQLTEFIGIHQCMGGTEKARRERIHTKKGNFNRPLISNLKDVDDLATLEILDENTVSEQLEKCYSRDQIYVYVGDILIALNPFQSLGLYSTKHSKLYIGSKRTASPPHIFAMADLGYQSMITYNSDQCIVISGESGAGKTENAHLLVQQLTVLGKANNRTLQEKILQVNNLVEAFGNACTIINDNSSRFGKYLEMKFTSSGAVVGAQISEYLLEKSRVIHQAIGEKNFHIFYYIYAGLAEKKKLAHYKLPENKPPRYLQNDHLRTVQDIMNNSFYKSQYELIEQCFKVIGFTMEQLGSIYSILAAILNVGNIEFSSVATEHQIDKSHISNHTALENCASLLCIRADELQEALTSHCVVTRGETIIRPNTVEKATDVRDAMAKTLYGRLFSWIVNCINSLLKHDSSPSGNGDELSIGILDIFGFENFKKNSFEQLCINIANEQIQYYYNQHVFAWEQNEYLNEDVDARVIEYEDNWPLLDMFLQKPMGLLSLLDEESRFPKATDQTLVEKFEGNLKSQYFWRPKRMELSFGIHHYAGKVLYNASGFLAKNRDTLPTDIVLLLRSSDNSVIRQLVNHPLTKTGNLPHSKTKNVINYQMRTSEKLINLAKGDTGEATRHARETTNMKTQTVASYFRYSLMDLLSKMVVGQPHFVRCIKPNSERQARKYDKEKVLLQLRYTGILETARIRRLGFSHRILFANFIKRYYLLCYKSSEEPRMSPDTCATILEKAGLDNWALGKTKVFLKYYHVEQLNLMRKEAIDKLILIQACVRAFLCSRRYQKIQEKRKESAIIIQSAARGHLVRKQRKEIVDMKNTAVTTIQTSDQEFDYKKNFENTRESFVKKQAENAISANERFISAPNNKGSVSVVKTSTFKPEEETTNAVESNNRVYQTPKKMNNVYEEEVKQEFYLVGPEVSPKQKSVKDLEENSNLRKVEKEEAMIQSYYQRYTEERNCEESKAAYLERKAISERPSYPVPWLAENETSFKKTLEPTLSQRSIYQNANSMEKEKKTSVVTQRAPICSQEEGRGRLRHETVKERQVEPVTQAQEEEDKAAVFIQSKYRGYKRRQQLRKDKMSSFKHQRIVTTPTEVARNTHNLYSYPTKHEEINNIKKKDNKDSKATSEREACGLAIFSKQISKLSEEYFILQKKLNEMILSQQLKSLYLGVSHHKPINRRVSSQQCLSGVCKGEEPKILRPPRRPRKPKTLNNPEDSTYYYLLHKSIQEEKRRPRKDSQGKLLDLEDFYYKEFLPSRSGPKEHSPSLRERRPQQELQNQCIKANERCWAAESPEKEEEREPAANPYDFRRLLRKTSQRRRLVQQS
UniProt P07949, sequence (whole entry, unmodified, looked up): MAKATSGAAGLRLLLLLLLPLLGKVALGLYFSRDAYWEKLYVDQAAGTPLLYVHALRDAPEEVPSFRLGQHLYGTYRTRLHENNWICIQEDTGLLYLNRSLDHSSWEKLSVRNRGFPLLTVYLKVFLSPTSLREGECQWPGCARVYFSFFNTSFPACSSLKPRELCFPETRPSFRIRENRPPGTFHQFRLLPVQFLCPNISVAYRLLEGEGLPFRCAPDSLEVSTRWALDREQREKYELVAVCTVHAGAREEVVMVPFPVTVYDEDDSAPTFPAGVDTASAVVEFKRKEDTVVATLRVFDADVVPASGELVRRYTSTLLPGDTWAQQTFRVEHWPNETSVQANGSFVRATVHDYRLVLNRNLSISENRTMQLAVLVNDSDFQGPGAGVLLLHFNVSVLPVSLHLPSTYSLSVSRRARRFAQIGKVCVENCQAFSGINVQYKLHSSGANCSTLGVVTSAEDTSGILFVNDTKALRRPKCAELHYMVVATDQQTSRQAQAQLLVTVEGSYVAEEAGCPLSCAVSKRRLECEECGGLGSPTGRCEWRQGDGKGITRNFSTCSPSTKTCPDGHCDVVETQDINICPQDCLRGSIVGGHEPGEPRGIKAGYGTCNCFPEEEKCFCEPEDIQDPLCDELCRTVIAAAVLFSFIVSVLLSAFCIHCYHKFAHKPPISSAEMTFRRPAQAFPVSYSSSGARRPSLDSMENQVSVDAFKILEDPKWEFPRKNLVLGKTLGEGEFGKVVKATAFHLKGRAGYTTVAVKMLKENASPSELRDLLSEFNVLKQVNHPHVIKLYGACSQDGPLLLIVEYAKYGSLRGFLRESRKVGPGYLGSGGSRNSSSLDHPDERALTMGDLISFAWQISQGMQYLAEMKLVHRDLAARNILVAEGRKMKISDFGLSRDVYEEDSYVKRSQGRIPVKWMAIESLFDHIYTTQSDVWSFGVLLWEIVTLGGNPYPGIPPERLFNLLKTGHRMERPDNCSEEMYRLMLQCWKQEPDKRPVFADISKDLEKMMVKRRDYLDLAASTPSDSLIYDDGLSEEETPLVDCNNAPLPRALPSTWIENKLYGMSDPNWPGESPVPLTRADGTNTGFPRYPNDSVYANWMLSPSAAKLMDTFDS

Set 1 — tested at: 1 µM
Compound: Cc1nc(Cc2cccc(C(F)(F)F)c2)sc1-c1ccc(C(N)=O)nc1
| target | assay | remaining binding |
| --- | --- | --- |
| Phosphatidylinositol 3-kinase catalytic subunit type 3 (PIK3C3, Homo sapiens, UniProt Q8NEB9) | cell-free assay, competition with immobilised ligand | 100% |
| Tyrosine-protein kinase ABL1, phosphorylated (ABL1, Homo sapiens, UniProt P00519) | cell-free assay, competition with immobilised ligand | 98% |
| Platelet-derived growth factor receptor beta (PDGFRB, Homo sapiens, UniProt P09619) | cell-free assay, competition with immobilised ligand | 92% |
| Serine/threonine-protein kinase PAK 1 (PAK1, Homo sapiens, UniProt Q13153) | cell-free assay, competition with immobilised ligand | 84% |
| Tyrosine-protein kinase Lyn (LYN, Homo sapiens, UniProt P07948) | cell-free assay, competition with immobilised ligand | 95% |
| Phosphatidylinositol 5-phosphate 4-kinase type-2 beta (PIP4K2B, Homo sapiens, UniProt P78356) | cell-free assay, competition with immobilised ligand | 88% |
| Receptor-type tyrosine-protein kinase FLT3 (FLT3, Homo sapiens, UniProt P36888) | cell-free assay, competition with immobilised ligand | 87% |
| Receptor-type tyrosine-protein kinase FLT3 (FLT3, Homo sapiens, UniProt P36888, K663Q) | cell-free assay, competition with immobilised ligand | 88% |
| Activin receptor type-2A (ACVR2A, Homo sapiens, UniProt P27037) | cell-free assay, competition with immobilised ligand | 85% |
| cAMP-dependent protein kinase catalytic subunit PRKX (PRKX, Homo sapiens, UniProt P51817) | cell-free assay, competition with immobilised ligand | 100% |
| Dual serine/threonine and tyrosine protein kinase (DSTYK, Homo sapiens, UniProt Q6XUX3) | cell-free assay, competition with immobilised ligand | 78% |
| Serine/threonine-protein kinase VRK2 (VRK2, Homo sapiens, UniProt Q86Y07) | cell-free assay, competition with immobilised ligand | 100% |
| Tyrosine-protein kinase ABL1, phosphorylated (ABL1, Homo sapiens, UniProt P00519, Y253F) | cell-free assay, competition with immobilised ligand | 88% |
| Vascular endothelial growth factor receptor 1 (FLT1, Homo sapiens, UniProt P17948) | cell-free assay, competition with immobilised ligand | 100% |
| Discoidin domain-containing receptor 2 (DDR2, Homo sapiens, UniProt Q16832) | cell-free assay, competition with immobilised ligand | 100% |
| Serine/threonine-protein kinase TNNI3K (TNNI3K, Homo sapiens, UniProt Q59H18) | cell-free assay, competition with immobilised ligand | 100% |
| Serine/threonine-protein kinase SIK1 (SIK1, Homo sapiens, UniProt P57059) | competition binding | 100% |
| Wee1-like protein kinase 2 (WEE2, Homo sapiens, UniProt P0C1S8) | cell-free assay, competition with immobilised ligand | 100% |
| Receptor-type tyrosine-protein kinase FLT3 (FLT3, Homo sapiens, UniProt P36888, ITD) | cell-free assay, competition with immobilised ligand | 100% |
| Epidermal growth factor receptor (EGFR, Homo sapiens, UniProt P00533, L858R/T790M) | cell-free assay, competition with immobilised ligand | 87% |
| Proto-oncogene tyrosine-protein kinase receptor Ret (RET, Homo sapiens, UniProt P07949, M918T) | cell-free assay, competition with immobilised ligand | 95% |
| Myosin-IIIa (MYO3A, Homo sapiens, UniProt Q8NEV4) | binding, competition with immobilised ligand | 98% |
| Macrophage colony-stimulating factor 1 receptor, autoinhibited (CSF1R, Homo sapiens, UniProt P07333) | cell-free assay, competition with immobilised ligand | 100% |
| Tyrosine-protein kinase Blk (BLK, Homo sapiens, UniProt P51451) | cell-free assay, competition with immobilised ligand | 100% |
| Ribosomal protein S6 kinase alpha-3, C-terminal kinase domain (RPS6KA3, Homo sapiens, UniProt P51812) | cell-free assay, competition with immobilised ligand | 99% |

Set 2 — species: human; matrix: microsomes or S9; tested at: 2 µM; time: 0.5 h
| SMILES | remaining compound [%] |
| --- | --- |
| O=c1c2ccccc2[se]n1-c1ccc(S(=O)(=O)Nc2ccccn2)cc1 | 44 |
| Cc1coc(C)c1C(=O)CC1(O)C(=O)Nc2cc(Cl)cc(Cl)c21 (stereo not shown) | 88 |
| Nc1ccc2nn(-c3ccccc3)nc2c1Br | 93.7 |
| Cc1ccc(S(=O)(=O)NC(=NCc2ccccc2)c2ccc(F)cc2)cc1 | 19.1 |
| CC(=O)N1CCc2[nH]cnc2C12CCN(C(=O)C(F)c1ccccc1)CC2 (stereo not shown) | > 100 |
| CC1Cc2cc(-c3ccc(C#N)c(O)n3)ccc2O1 (stereo not shown) | 71.3 |

Set 3 — observed: binding; tested at: 1 µM
SMILES: COc1ccc2[nH]c3c4[nH]c5ccc(OC)cc5c4c4c(c3c2c1)C(=O)NC4=O
| target | assay | remaining binding [%] |
| --- | --- | --- |
| Ephrin type-A receptor 1 (EPHA1, Homo sapiens, UniProt P21709) | competition with immobilised ligand | 93 |
| Peripheral plasma membrane protein CASK (CASK, Homo sapiens, UniProt O14936) |  | 100 |
| Phosphatidylinositol 4-kinase beta (PI4KB, Homo sapiens, UniProt Q9UBF8) |  | 100 |
| Ribosomal protein S6 kinase alpha-1, N-terminal kinase domain (RPS6KA1, Homo sapiens, UniProt Q15418) | competition with immobilised ligand | 49 |
| Receptor-interacting serine/threonine-protein kinase 1 (RIPK1, Homo sapiens, UniProt Q13546) |  | 90 |

Set 4 — technique: PRP chromatography; notes: linear fit, 1 mL
| Structure (SMILES) | logD 1,9-decadiene/water [log units] |
| --- | --- |
| CC(C)C[C@@H]1NC(=O)[C@H](C)NC(=O)[C@H](CCC(=O)N2CCCC2)NC(=O)[C@H](C)NC(=O)[C@H](CC(C)C)NC(=O)[C@H](CC(C)C)NC(=O)[C@H](CC(C)C)NC1=O | -1.43 |
| CC(C)C[C@@H]1NC(=O)[C@H](CC(C)C)NC(=O)[C@@H](CC(C)C)NC(=O)[C@H](C)NC(=O)[C@H](C(C)C)NC(=O)[C@H](C)NC(=O)[C@H](C)NC1=O | -2.15 |
| CC(C)C[C@@H]1NC(=O)[C@H](C)NC(=O)[C@H](CC(C)C)NC(=O)[C@@H](CC(C)C)NC(=O)[C@H](CC(C)C)NC(=O)[C@H](C)NC(=O)[C@H](CCC(=O)N2CCCC2)NC1=O | 1.13 |
| CC(C)C[C@@H]1NC(=O)[C@H](CC(C)C)NC(=O)[C@@H](CC(C)C)NC(=O)[C@H](C(C)C)NC(=O)[C@H](C(C)C)NC(=O)[C@H](Cc2cscn2)NC(=O)[C@H](C)NC1=O | -1.43 |
| CC(C)C[C@@H]1NC(=O)[C@H](CC(C)C)NC(=O)[C@H](CC(C)C)NC(=O)[C@H](C(C)C)NC(=O)[C@H](C(C)C)NC(=O)[C@H](C)NC(=O)[C@H](C)NC1=O | -1.21 |
| CC(C)C[C@@H]1NC(=O)[C@H](C)NC(=O)[C@@H](CC(C)C)NC(=O)[C@H](C)NC(=O)[C@H](CC(C)C)NC(=O)[C@H](CC(C)C)NC(=O)[C@H](CC(C)C)NC1=O | -0.291 |
| CC(C)C[C@@H]1NC(=O)[C@H](CCC(=O)N2CCCC2)NC(=O)[C@H](CCC(=O)N2CCCC2)NC(=O)[C@@H](CCC(=O)N2CCCC2)NC(=O)[C@H](CC(C)C)NC(=O)[C@@H](CC(C)C)NC(=O)[C@H](CC(C)C)NC1=O | -1.56 |

Set 5 — cell line: HaCaT; tested at: 100 µM; time: 36 h
| SMILES | viability |
| --- | --- |
| CCN1CCN(Cc2ccc(Nc3ncc(F)c(-c4cc(F)c5nc(C)n(C(C)C)c5c4)n3)nc2)CC1 | 82.1% |
| O=C(OC[C@H]1O[C@@H](OC(=O)c2cc(O)c(O)c(OC(=O)c3cc(O)c(O)c(O)c3)c2)[C@H](OC(=O)c2cc(O)c(O)c(OC(=O)c3cc(O)c(O)c(O)c3)c2)[C@@H](OC(=O)c2cc(O)c(O)c(OC(=O)c3cc(O)c(O)c(O)c3)c2)[C@@H]1OC(=O)c1cc(O)c(O)c(OC(=O)c2cc(O)c(O)c(O)c2)c1)c1cc(O)c(O)c(OC(=O)c2cc(O)c(O)c(O)c2)c1 | 26.8% |
| O=C(CO)[C@@H](O)[C@H](O)[C@H](O)CO | 90.5% |
| O=C(O)c1cc(=O)c2ccccc2o1 | 81.6% |
| C[C@@H]1O[C@@H](OC[C@H]2O[C@@H](Oc3c(-c4ccc(OCCO)c(OCCO)c4)oc4cc(OCCO)cc(O)c4c3=O)[C@H](O)[C@@H](O)[C@@H]2O)[C@H](O)[C@H](O)[C@H]1O | 89.9% |

Set 6 — matrix: EL4 tumour; dose: dose not given; relative to: vehicle
SMILES: CC(=O)N[C@@H](Cc1c[nH]c2ccccc12)C(=O)N[C@@H](CCC(=O)C=[N+]=[N-])C(=O)OC(C)C
| assay | test system | log2 fold change |
| --- | --- | --- |
| refers to: 3-methylcytidine | mouse, EL4 tumour-bearing | -0.28 |
| refers to: S-adenosylmethionine | Mus musculus | -0.685 |
| refers to: kynurenine | mouse, EL4 tumour-bearing | -0.0287 |
| refers to: tryptophan | mouse, EL4 tumour-bearing | 0.316 |
| refers to: fructose 6-phosphate | mouse, EL4 tumour-bearing | 0.662 |
| refers to: cystathionine | mouse, EL4 tumour-bearing | 0.0679 |
| refers to: pyridoxamine phosphate | Mus musculus | -0.473 |

A few entries again (set 1):
| target | assay | remaining binding |
| --- | --- | --- |
| Wee1-like protein kinase 2 (WEE2, Homo sapiens, UniProt P0C1S8) | cell-free assay, competition with immobilised ligand | 100% |
| Receptor-type tyrosine-protein kinase FLT3 (FLT3, Homo sapiens, UniProt P36888, ITD) | cell-free assay, competition with immobilised ligand | 100% |
| Epidermal growth factor receptor (EGFR, Homo sapiens, UniProt P00533, L858R/T790M) | cell-free assay, competition with immobilised ligand | 87% |
| Proto-oncogene tyrosine-protein kinase receptor Ret (RET, Homo sapiens, UniProt P07949, M918T) | cell-free assay, competition with immobilised ligand | 95% |
| Myosin-IIIa (MYO3A, Homo sapiens, UniProt Q8NEV4) | binding, competition with immobilised ligand | 98% |
| Macrophage colony-stimulating factor 1 receptor, autoinhibited (CSF1R, Homo sapiens, UniProt P07333) | cell-free assay, competition with immobilised ligand | 100% |
| Tyrosine-protein kinase Blk (BLK, Homo sapiens, UniProt P51451) | cell-free assay, competition with immobilised ligand | 100% |
| Ribosomal protein S6 kinase alpha-3, C-terminal kinase domain (RPS6KA3, Homo sapiens, UniProt P51812) | cell-free assay, competition with immobilised ligand | 99% |
